# Experimental data from different studies.
# Compare with care: the assays were run in different laboratories. Numbers after ± are the reported error.
Structure (SMILES),test,system,setting,how to read,retention time
CC[C@@H](C)[C@@H](NC(=O)[C@@H](C)NC(=O)[C@@H](CCCCN)NC(=O)[C@@H](CC(C)C)NC(=O)[C@@H](CC(C)C)NC(=O)[C@H](NC(=O)[C@@H](CCCCN)NC(=O)[C@@H](CC(C)C)NC(=O)[C@@H](CCCCN)NC(=O)[C@@H](CCCCN)NC(=O)[C@@H](CCCCN)NC(=O)[C@@H](CCCCN)NC(=O)[C@@H](C)NC(=O)[C@@H](CCCCN)NC(=O)[C@@H](CO)NC(=O)[C@@H](Cc1ccccc1)NC(=O)[C@H](NC(=O)[C@@H](CCCCN)NC(=O)[C@@H](CC(C)C)NC(=O)[C@@H](Cc1ccccc1)NC(=O)[C@@H](CO)NC(=O)[C@@H](CCCCN)NC(=O)[C@@H](Cc1c[nH]c2ccccc12)NC(=O)[C@@H](CCCCN)NC(C)=O)[C@H](C)O)[C@H](C)O)C(=O)N[C@H](CO)C(=O)N[C@H](CCCCN)C(N)=O,RP-HPLC C8,,"pH 2, hydrophobicity measure",,81.8 min
C[C@H](NC(=O)[C@H](CCC(N)=O)NC(=O)[C@H](Cc1c[nH]c2ccccc12)NC(=O)[C@@H](N)CCCNC(=N)N)C(=O)N[C@@H](CCCNC(=N)N)C(=O)N[C@@H](Cc1c[nH]c2ccccc12)C(=O)N[C@@H](CCC(N)=O)C(=O)N[C@@H](Cc1c[nH]c2ccccc12)C(=O)N[C@@H](CCCNC(=N)N)C(N)=O,RP-HPLC C18,,hydrophobicity measure,,5.6 min
CC(C)C[C@@H]1NC(=O)[C@H](CCCCN)NC(=O)[C@H](C(C)C)NC(=O)[C@@H]2CCCN2C(=O)[C@@H](Cc2ccc(O)cc2)NC(=O)[C@H](CC(C)C)NC(=O)[C@H](CCCCN)NC(=O)[C@H](C(C)C)NC(=O)[C@H](CCCCN)NC(=O)[C@H](CC(C)C)NC(=O)[C@H](CCCCN)NC(=O)[C@@H]2CCCN2C(=O)[C@@H](Cc2ccc(O)cc2)NC(=O)[C@H](C(C)C)NC(=O)[C@H](CCCCN)NC1=O,RP-HPLC C8,,"70 °C, water/acetonitrile TFA gradient",,25.9 min
CC[C@H](C)[C@H](NC(=O)[C@H](CCCNC(=N)N)NC(=O)[C@H](CCCCN)NC(=O)[C@H](Cc1ccc(O)cc1)NC(=O)[C@H](CC(=O)O)NC(=O)[C@H](C)NC(=O)CNC(=O)CCOCCOCCOCCNC(=O)CN1CCN(CC(=O)O)CCN(CC(=O)O)CCN(CC(=O)O)CC1)C(=O)N[C@H](C(=O)N[C@@H](CC(C)C)C(=O)N[C@@H](CCCCN)C(=O)N[C@H](C(=O)N[C@@H](CC(N)=O)C(N)=O)C(C)C)[C@@H](C)O [copper-64 labelled],radio-RP-HPLC,,MeCN/water TFA gradient,longer means more hydrophobic,7.83 min
CC(C)C[C@@H]1NC(=O)[C@H](CC(C)C)NC(=O)[C@H](CC(C)C)NC(=O)[C@@H]2CSCC(=O)N[C@@H](CCCCN)C(=O)N[C@@H](CCCCN)C(=O)N[C@@H](CCCCN)C(=O)NCCCC[C@H](NC(=O)[C@H](CCCCN)NC(=O)[C@H](CCCCN)NC(=O)[C@H](CCCCN)NC(=O)CSC[C@@H](C(=O)N[C@@H](CCCCN)C(N)=O)NC1=O)C(=O)N[C@@H](CCCCN)C(=O)N[C@@H](CC(C)C)C(=O)N[C@@H](CC(C)C)C(=O)N2,analytical RP-HPLC,C18 column,"10.00 min gradient, 0.05% TFA",,2.86 min
N=C(N)NCCC[C@H](NC(=O)[C@H](Cc1c[nH]c2ccccc12)NC(=O)[C@H](CCC(N)=O)NC(=O)[C@H](Cc1c[nH]c2ccccc12)NC(=O)[C@H](CCCNC(=N)N)NC(=O)[C@H](Cc1c[nH]c2ccccc12)NC(=O)[C@H](CCC(N)=O)NC(=O)[C@H](Cc1c[nH]c2ccccc12)NC(=O)[C@H](CCCNC(=N)N)NC(=O)CCCCCNC(=O)CCCC[C@@H]1SC[C@@H]2NC(=O)N[C@@H]21)C(N)=O,"RP-HPLC, C18 column",,water/acetonitrile gradient with TFA,,6.9 min
CC[C@@H](C)[C@@H](NC(=O)[C@@H](C)NC(=O)[C@@H](CCCCN)NC(=O)[C@@H](CC(C)C)NC(=O)[C@@H](C)NC(=O)[C@H](NC(=O)[C@@H](Cc1c[nH]cn1)NC(=O)[C@@H](CC(C)C)NC(=O)[C@H](NC(=O)[C@H](NC(=O)[C@@H](CCCCN)NC(=O)[C@H](NC(=O)[C@@H](C)NC(=O)[C@@H](CO)NC(=O)[C@@H](CCCCN)NC(=O)[C@@H](Cc1ccccc1)NC(=O)[C@H](NC(=O)[C@@H](CCCCN)NC(=O)[C@@H](CC(C)C)NC(=O)[C@@H](Cc1ccccc1)NC(=O)[C@@H](CO)NC(=O)[C@@H](CCCCN)NC(=O)[C@@H](Cc1c[nH]c2ccccc12)NC(=O)[C@@H](CCCCN)NC(C)=O)[C@H](C)O)C(C)C)[C@H](C)O)C(C)C)[C@H](C)O)C(=O)N[C@H](CO)C(=O)N[C@H](CO)C(N)=O,RP-HPLC C8,,"pH 2, hydrophobicity measure",,102 min
CC(C)C[C@@H]1NC(=O)[C@H](CCCCN)NC(=O)[C@H](C(C)C)NC(=O)[C@@H]2CCCN2C(=O)[C@@H](Cc2ccc(O)cc2)NC(=O)[C@H](CC(C)C)NC(=O)[C@H](CCCCN)NC(=O)[C@H](C(C)C)NC(=O)[C@H](CCCCN)NC(=O)[C@H](CC(C)C)NC(=O)[C@H](CCCCN)NC(=O)[C@@H]2CCCN2C(=O)[C@@H](Cc2ccc(O)cc2)NC(=O)[C@H](CCCCN)NC(=O)[C@H](CCCCN)NC1=O,RP-HPLC C8,,"70 °C, water/acetonitrile TFA gradient",,21.6 min
CC[C@@H](C)[C@@H](NC(=O)[C@@H](CC(C)C)NC(=O)[C@@H](CCCCN)NC(=O)[C@@H](CC(C)C)NC(=O)[C@@H](CC(C)C)NC(=O)[C@H](NC(=O)[C@@H](Cc1c[nH]cn1)NC(=O)[C@@H](CC(C)C)NC(=O)[C@@H](CCCCN)NC(=O)[C@H](NC(=O)[C@@H](CCCCN)NC(=O)[C@@H](CCCCN)NC(=O)[C@@H](CC(C)C)NC(=O)[C@@H](CO)NC(=O)[C@@H](CCCCN)NC(=O)[C@@H](Cc1ccccc1)NC(=O)[C@H](NC(=O)[C@@H](CCCCN)NC(=O)[C@@H](CC(C)C)NC(=O)[C@@H](Cc1ccccc1)NC(=O)[C@@H](CO)NC(=O)[C@@H](CCCCN)NC(=O)[C@@H](Cc1c[nH]c2ccccc12)NC(=O)[C@@H](CCCCN)NC(C)=O)[C@H](C)O)[C@H](C)O)[C@H](C)O)C(=O)N[C@H](CO)C(=O)N[C@H](CO)C(N)=O,RP-HPLC C8,,pH 2,,80.4 min
CCCCCCCCCCCCCCCCCC(=O)N[C@@H](CCCNC(=N)N)C(=O)N[C@@H](CCCNC(=N)N)C(=O)N[C@@H](CCCNC(=N)N)C(=O)N[C@@H](CCCNC(=N)N)C(=O)N[C@@H](CCCNC(=N)N)C(N)=O,RP-HPLC C18,,,,9.51 min
Cc1c(C)c(C)[c-](C)c1C.O=[N+]([O-])c1ccnc(-c2[c-]cccc2)c1.[Cl-].[Ir+3],RP-HPLC,"C18 column, water/acetonitrile",with: 50 mM NaCl,longer = more hydrophobic,18 ± 0.1 min
CCCCCCCCCC(=O)N[C@@H](Cc1ccccc1)C(=O)N[C@@H](Cc1ccccc1)C(=O)N[C@@H](Cc1ccccc1)C(=O)N[C@@H](Cc1ccccc1)C(=O)N[C@@H](CCCCN)C(=O)N[C@@H](CCCCN)C(=O)N[C@@H](CCCCN)C(=O)N[C@@H](CCCCN)C(=O)N[C@@H](CCCCN)C(N)=O,RP-HPLC C18,,,,16.3 min
CC(C)C[C@@H]1NC(=O)[C@H](CCCCN)NC(=O)[C@H](C(C)C)NC(=O)[C@@H]2CCCN2C(=O)[C@@H](Cc2ccc(O)cc2)NC(=O)[C@H](CC(C)C)NC(=O)[C@H](CCCCN)NC(=O)[C@H](C(C)C)NC(=O)[C@H](CCCCN)NC(=O)[C@H](CC(C)C)NC(=O)[C@@H]2CCCN2C(=O)[C@@H](Cc2ccc(O)cc2)NC(=O)[C@H](CCCCN)NC1=O,RP-HPLC C8,,"70 °C, water/acetonitrile TFA gradient",,25.8 min
CCCCCCCCCCCC(=O)N[C@@H](CCCCN)C(=O)N[C@@H](CCCCN)C(=O)N[C@@H](CCCCN)C(=O)N[C@@H](CCCCN)C(=O)N[C@@H](CCCCN)C(N)=O,RP-HPLC C18,,,,10.9 min
CC(C)C[C@@H]1NC(=O)[C@H](CCCCN)NC(=O)[C@@H]2CCCN2C(=O)[C@@H](Cc2ccc(O)cc2)NC(=O)[C@H](CCCCN)NC(=O)[C@H](C(C)C)NC(=O)[C@H](CC(C)C)NC(=O)[C@H](CCCCN)NC(=O)[C@H](C(C)C)NC(=O)[C@@H]2CCCN2C(=O)[C@@H](Cc2ccc(O)cc2)NC(=O)[C@H](CC(C)C)NC(=O)[C@H](CCCCN)NC(=O)[C@H](C(C)C)NC(=O)[C@H](CCCCN)NC1=O,RP-HPLC C8,,"70 °C, water/acetonitrile TFA gradient",,22.7 min
CCCCCCCCCCCCCCCCCC(=O)N[C@@H](CCCCN)C(=O)N[C@@H](CCCCN)C(=O)N[C@@H](CCCCN)C(=O)N[C@@H](CCCCN)C(=O)N[C@@H](CCCCN)C(N)=O,RP-HPLC C18,,,,15.8 min
CC(C)C[C@H](NC(=O)[C@@H]1CSCC(=O)NCCCC[C@@H]2NC(=O)CSC[C@H](NC(=O)[C@H](CCCCN)NC2=O)C(=O)N[C@@H](CCCCN)C(=O)N[C@@H](CC(C)C)C(=O)N1)C(N)=O,analytical RP-HPLC,C18 column,"10.00 min gradient, 0.05% TFA",,2.52 min

# Some of these lines once more:
Structure (SMILES),test,system,setting,how to read,retention time
CC[C@@H](C)[C@@H](NC(=O)[C@@H](C)NC(=O)[C@@H](CCCCN)NC(=O)[C@@H](CC(C)C)NC(=O)[C@@H](C)NC(=O)[C@H](NC(=O)[C@@H](Cc1c[nH]cn1)NC(=O)[C@@H](CC(C)C)NC(=O)[C@H](NC(=O)[C@H](NC(=O)[C@@H](CCCCN)NC(=O)[C@H](NC(=O)[C@@H](C)NC(=O)[C@@H](CO)NC(=O)[C@@H](CCCCN)NC(=O)[C@@H](Cc1ccccc1)NC(=O)[C@H](NC(=O)[C@@H](CCCCN)NC(=O)[C@@H](CC(C)C)NC(=O)[C@@H](Cc1ccccc1)NC(=O)[C@@H](CO)NC(=O)[C@@H](CCCCN)NC(=O)[C@@H](Cc1c[nH]c2ccccc12)NC(=O)[C@@H](CCCCN)NC(C)=O)[C@H](C)O)C(C)C)[C@H](C)O)C(C)C)[C@H](C)O)C(=O)N[C@H](CO)C(=O)N[C@H](CO)C(N)=O,RP-HPLC C8,,"pH 2, hydrophobicity measure",,102 min
CC[C@@H](C)[C@@H](NC(=O)[C@@H](C)NC(=O)[C@@H](CCCCN)NC(=O)[C@@H](CC(C)C)NC(=O)[C@@H](CC(C)C)NC(=O)[C@H](NC(=O)[C@@H](CCCCN)NC(=O)[C@@H](CC(C)C)NC(=O)[C@@H](CCCCN)NC(=O)[C@@H](CCCCN)NC(=O)[C@@H](CCCCN)NC(=O)[C@@H](CCCCN)NC(=O)[C@@H](C)NC(=O)[C@@H](CCCCN)NC(=O)[C@@H](CO)NC(=O)[C@@H](Cc1ccccc1)NC(=O)[C@H](NC(=O)[C@@H](CCCCN)NC(=O)[C@@H](CC(C)C)NC(=O)[C@@H](Cc1ccccc1)NC(=O)[C@@H](CO)NC(=O)[C@@H](CCCCN)NC(=O)[C@@H](Cc1c[nH]c2ccccc12)NC(=O)[C@@H](CCCCN)NC(C)=O)[C@H](C)O)[C@H](C)O)C(=O)N[C@H](CO)C(=O)N[C@H](CCCCN)C(N)=O,RP-HPLC C8,,"pH 2, hydrophobicity measure",,81.8 min
